# Published values from different studies.
# Each numbered part is a random draw from the data of one study; scales do not carry over between parts.

# Sample 1
# Target: Interferon regulatory factor 3, full length, phosphomimetic (IRF3, Homo sapiens, UniProt Q14653, residues 1-427, S386D/S396D/S398D/S402D/T404D/S405D)
# Technique: protein-binding microarray
# Form: double-stranded DNA, one strand shown
# Matrix: in vitro
# Tested at: 2540 nM top
# Setting: 60-bp whole probe
# Added: salmon DNA 0.4 mg/ml
# Relative to: random background probes
# Direction: higher = stronger binding
# Constant ends, left off below: GCCTAGCAC … GTCTTGATTCGCTTGACGCTGCTG
# Residues (chain): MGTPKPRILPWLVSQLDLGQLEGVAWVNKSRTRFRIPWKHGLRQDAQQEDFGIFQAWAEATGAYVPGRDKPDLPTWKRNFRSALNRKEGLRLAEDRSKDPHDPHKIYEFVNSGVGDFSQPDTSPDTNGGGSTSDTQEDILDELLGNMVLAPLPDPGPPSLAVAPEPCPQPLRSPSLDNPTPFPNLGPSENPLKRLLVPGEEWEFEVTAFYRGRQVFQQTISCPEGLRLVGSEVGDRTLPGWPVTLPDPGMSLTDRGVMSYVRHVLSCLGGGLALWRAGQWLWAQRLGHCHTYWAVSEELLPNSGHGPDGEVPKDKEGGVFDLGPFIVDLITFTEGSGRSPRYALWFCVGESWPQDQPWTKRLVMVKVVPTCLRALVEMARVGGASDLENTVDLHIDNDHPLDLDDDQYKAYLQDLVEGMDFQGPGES
Oligonucleotide,fitted relative affinity [z-score]
TTCAGTTTCACTGCTGCCCTGTGCTAG,2.85
TACGATTTCGGGACTGGAGACGTGCTA,1.31
TTAGGTAACGACTATCGGTTAGTGCTA,0.156
TTAGATCTCAGGCTCGATTAGTGCTAG,-0.141
TTAGGTATCGACACTGGGTTGGTGCTA,0.229
TCAAAATTCTAATTAGAACTGTGCTAG,0.243
CTCATTCTCTGCTTCTGTATGTGCTAG,2.05

# Sample 2
# Target: Sal-like protein 4, full length isoform A (SALL4, Homo sapiens, UniProt Q9UJQ4, residues 1-1053)
# Sequence of UniProt Q9UJQ4 (whole entry, looked up): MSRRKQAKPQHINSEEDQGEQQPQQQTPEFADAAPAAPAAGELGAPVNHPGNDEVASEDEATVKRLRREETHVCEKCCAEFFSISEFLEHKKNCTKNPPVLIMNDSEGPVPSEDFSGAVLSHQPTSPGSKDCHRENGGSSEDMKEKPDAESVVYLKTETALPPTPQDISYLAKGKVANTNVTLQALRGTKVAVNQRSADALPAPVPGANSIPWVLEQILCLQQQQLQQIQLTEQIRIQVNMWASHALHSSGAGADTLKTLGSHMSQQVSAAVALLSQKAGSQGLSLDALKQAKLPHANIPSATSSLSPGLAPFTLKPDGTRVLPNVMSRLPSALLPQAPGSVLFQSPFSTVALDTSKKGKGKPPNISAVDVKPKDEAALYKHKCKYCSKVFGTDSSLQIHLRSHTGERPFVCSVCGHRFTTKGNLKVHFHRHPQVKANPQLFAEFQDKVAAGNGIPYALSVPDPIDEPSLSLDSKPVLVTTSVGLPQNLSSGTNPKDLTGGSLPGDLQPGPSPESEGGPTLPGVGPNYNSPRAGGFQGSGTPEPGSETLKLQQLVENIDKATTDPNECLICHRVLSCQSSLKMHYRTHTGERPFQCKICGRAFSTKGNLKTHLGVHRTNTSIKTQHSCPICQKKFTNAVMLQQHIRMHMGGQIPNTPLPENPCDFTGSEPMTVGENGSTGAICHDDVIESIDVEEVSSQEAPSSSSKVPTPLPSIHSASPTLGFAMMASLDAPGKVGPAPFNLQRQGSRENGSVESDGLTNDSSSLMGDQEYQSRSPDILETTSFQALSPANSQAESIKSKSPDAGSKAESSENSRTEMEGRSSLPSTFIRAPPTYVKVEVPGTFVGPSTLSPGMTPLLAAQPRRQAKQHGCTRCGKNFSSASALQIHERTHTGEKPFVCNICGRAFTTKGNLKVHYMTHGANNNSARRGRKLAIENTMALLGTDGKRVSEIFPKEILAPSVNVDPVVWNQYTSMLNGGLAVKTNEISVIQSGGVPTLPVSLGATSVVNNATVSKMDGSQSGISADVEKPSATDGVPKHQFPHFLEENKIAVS
# Technique: universal PBM
# Form: double-stranded DNA, one strand shown
# Matrix: in vitro
# Tested at: 600 nM
# Setting: 8-mer, flanks averaged, mean of replicates
# Direction: higher = stronger binding
Oligonucleotide,E-score
ATAACCCC,-0.0226
GCCCACGA,-0.284
TATTCAAA,0.327
CCTAGCCA,-0.0503
AAGCACCT,-0.0632
AATCCAGC,-0.228
GAAGTGGA,-0.0668

# Sample 3
# Target: Prothrombin, mature alpha-thrombin (F2, Homo sapiens, UniProt P00734)
# Technique: aptamer microarray, sandwich
# Form: DNA with 2'F-ANA
# Matrix: in vitro
# Tested at: 200 nM
# Setting: whole 15-mer aptamer, many near background
# Added: Cy3 exosite-II aptamer, 400 nM
# Direction: higher = stronger binding
# Oligonucleotide: GGTTGGTGTGGTTGG
Modification,mean fluorescence intensity [a.u.]
2'F-ANA at 3 4 8 9 10 11 12 13 15,251
2'F-ANA at 1 2 5 7 8 9 11 13 14 15,50.8
2'F-ANA at 1 2 3 4 5 7 9 12 13 14 15,49.8
2'F-ANA at 1 3 4 7 15,272
2'F-ANA at 2 3 4 6 8 13,414
2'F-ANA at 3 7 10 12 13,973

# Sample 4
# Molecule: PhoQ, residues 284 288 289 292 302 303 SNSSNI
# Technique: Sort-seq
# Measured: YFP reporter
# Matrix: E. coli
# Setting: PhoQ-PhoP variant library
# Added: 10 µM Mg2+
# Relative to: high Mg2+ state
# Direction: higher = stronger signaling
target,fold induction
"PhoP, residues 12 14 15 18 19 AYFRS (Escherichia coli, UniProt P23836)",1.45
"PhoP, residues 12 14 15 18 19 SFCSL (Escherichia coli, UniProt P23836)",19.7
"PhoP, residues 12 14 15 18 19 HHYTI (Escherichia coli, UniProt P23836)",8.64

# For quick reference, copied from above (sample 1):
Oligonucleotide,fitted relative affinity [z-score]
TACGATTTCGGGACTGGAGACGTGCTA,1.31
TTAGATCTCAGGCTCGATTAGTGCTAG,-0.141
